# Published values from different studies.
# A part holds a random share of what one study measured. “And” joins repeats or separate records; there may be more than shown.
# Chain of UniProt Q16644 (whole entry, looked up): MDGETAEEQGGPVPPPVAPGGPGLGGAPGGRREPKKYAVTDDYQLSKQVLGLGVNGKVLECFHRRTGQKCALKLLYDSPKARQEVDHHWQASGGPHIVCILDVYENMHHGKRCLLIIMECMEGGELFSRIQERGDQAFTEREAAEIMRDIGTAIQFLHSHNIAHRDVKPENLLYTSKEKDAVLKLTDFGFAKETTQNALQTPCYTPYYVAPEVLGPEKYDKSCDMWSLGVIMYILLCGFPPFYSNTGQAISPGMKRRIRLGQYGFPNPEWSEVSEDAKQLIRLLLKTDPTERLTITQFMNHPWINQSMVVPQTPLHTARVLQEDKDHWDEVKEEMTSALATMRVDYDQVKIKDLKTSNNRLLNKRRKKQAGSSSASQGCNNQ
# Chain of UniProt P54762 (whole entry, looked up): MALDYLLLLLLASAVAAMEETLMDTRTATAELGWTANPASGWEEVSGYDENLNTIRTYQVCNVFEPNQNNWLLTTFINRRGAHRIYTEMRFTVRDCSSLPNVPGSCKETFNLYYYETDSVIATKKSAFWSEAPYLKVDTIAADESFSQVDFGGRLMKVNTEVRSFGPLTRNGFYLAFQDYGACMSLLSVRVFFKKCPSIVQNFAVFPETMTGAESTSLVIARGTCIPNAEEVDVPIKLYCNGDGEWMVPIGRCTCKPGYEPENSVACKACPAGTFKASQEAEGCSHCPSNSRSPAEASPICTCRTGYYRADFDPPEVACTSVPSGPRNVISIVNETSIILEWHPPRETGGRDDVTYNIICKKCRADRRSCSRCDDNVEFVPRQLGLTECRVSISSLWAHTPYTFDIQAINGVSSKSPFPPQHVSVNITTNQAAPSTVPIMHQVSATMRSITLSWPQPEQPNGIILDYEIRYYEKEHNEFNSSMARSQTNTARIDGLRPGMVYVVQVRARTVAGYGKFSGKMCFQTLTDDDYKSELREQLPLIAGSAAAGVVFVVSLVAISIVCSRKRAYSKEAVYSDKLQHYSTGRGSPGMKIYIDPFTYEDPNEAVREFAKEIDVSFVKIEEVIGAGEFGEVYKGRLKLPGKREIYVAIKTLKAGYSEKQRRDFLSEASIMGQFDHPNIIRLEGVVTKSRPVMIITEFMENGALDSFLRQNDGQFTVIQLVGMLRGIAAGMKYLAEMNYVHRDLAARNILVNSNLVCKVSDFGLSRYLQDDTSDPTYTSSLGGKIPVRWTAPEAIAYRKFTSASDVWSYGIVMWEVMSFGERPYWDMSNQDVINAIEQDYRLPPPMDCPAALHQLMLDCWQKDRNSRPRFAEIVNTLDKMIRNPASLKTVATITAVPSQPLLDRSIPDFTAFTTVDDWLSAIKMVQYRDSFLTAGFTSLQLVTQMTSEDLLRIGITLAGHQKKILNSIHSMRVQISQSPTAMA
# Chain of UniProt Q8NE63 (whole entry, looked up): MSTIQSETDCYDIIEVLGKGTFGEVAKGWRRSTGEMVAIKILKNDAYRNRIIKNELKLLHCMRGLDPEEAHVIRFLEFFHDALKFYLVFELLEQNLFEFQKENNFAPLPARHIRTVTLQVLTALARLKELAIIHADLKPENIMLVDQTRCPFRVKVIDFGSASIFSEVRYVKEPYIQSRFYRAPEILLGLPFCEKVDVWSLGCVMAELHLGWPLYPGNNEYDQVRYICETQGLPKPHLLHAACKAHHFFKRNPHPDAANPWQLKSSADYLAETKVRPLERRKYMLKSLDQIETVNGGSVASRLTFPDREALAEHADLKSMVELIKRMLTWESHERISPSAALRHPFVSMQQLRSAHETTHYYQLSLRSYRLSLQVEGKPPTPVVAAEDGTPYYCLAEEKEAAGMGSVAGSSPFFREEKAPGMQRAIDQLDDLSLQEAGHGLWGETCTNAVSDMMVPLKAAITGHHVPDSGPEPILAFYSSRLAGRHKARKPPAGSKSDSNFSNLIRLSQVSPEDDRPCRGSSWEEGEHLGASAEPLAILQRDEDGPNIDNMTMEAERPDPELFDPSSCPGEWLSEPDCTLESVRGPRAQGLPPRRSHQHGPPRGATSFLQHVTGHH
# Chain of UniProt O95819 (whole entry, looked up): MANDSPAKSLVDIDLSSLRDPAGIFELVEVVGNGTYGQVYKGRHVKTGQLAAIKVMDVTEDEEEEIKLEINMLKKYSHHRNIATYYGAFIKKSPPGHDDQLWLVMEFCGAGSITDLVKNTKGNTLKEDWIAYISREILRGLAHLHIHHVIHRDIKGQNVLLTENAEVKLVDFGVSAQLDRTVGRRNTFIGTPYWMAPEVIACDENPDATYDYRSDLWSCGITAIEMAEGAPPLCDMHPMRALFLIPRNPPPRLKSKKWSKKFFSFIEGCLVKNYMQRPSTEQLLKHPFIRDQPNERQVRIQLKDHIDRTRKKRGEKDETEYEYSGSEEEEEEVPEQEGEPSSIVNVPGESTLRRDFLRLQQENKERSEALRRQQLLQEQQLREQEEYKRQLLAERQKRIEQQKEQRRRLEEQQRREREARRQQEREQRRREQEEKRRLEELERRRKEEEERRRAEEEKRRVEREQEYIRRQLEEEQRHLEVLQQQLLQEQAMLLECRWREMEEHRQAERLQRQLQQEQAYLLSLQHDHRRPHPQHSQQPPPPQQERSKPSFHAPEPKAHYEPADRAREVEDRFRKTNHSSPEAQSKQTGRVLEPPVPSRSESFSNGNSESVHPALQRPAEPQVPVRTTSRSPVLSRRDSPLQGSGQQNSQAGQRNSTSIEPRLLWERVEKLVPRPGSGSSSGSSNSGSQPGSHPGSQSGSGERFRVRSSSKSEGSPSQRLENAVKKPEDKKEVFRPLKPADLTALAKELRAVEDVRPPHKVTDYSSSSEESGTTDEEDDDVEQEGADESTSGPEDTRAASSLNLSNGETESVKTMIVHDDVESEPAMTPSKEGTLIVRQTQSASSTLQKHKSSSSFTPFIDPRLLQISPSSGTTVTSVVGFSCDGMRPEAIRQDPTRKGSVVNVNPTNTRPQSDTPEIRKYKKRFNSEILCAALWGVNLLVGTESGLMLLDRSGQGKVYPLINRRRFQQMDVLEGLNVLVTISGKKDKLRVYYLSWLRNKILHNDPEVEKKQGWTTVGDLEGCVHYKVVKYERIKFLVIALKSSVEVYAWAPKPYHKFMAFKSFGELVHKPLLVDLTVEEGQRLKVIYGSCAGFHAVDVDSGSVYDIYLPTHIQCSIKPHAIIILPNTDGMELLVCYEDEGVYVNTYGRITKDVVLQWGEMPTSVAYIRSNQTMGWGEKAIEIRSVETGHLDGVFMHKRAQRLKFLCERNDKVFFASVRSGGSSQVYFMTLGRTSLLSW
# Chain of UniProt P54760 (whole entry, looked up): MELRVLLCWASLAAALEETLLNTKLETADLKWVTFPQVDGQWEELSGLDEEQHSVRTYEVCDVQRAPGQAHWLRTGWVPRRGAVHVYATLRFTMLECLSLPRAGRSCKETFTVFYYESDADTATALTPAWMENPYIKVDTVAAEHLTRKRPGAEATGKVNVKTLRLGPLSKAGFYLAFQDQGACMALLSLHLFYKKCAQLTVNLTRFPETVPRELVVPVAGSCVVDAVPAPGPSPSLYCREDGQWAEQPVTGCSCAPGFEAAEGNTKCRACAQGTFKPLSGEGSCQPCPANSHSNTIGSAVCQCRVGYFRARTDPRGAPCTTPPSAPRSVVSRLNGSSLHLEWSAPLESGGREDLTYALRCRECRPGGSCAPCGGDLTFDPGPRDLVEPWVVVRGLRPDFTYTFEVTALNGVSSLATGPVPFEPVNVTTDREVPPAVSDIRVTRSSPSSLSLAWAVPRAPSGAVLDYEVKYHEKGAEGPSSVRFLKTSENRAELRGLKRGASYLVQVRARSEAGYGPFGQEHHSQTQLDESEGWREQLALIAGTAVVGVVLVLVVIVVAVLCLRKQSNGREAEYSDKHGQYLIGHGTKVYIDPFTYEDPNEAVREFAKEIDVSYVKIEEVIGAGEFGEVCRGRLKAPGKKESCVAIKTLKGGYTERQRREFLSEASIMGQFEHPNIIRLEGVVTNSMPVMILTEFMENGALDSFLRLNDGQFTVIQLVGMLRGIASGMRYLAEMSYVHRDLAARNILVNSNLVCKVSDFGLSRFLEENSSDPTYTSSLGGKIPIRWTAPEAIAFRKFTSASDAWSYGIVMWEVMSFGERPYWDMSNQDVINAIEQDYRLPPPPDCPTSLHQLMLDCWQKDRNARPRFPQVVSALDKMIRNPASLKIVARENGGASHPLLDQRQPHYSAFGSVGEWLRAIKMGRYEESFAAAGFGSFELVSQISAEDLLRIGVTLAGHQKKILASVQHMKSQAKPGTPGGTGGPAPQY

# Sample 1 — observed: enzyme activity; mode: inhibitor; tested at: 0.5 µM; baseline: control
# Structure (SMILES): COc1ccc2c(c[n+](C)c3c4cc5c(cc4ccc23)OCO5)c1OC
target,remaining activity [%]
"EPHB1 (Homo sapiens, UniProt P54762)",90.4
"EPHB4 (Homo sapiens, UniProt P54760)",91.7
"MAPKAPK3 (Homo sapiens, UniProt Q16644)",83
"HIPK4 (Homo sapiens, UniProt Q8NE63)",95.9
"MAP4K4 (Homo sapiens, UniProt O95819)",84.9

# Sample 2
# SMILES: CC[C@@H](C)c1nc2cc(Nc3ccnc4ccc(S(=O)(=O)C(C)C)cc34)ccc2s1.Cl
cell line,assay,setting,viability
L929,CCK-8,12.5 µM,112% and 111% and 108% and 113%
L929 RIPK3 knockout,,"3.125 µM, with: zVAD",102% and 111% and 108% and 104% and 98.8%
L929,CCK-8,0.781 µM,103% and 101% and 100% and 98.4%
L929,CCK-8,"0.781 µM, with: zVAD",98.5% and 93.3% and 99.7% and 100%
HT-29,"necroptosis protection, CCK-8","20 µM, with: TNF-α SMAC mimetic zVAD",93.2% and 89.1% and 73.7% and 80.5%
HT-29,"necroptosis protection, CCK-8","1.25 µM, with: TNF-α SMAC mimetic zVAD",34% and 58.8% and 32.2% and 35.1% and 32.9%
HT-29,"necroptosis protection, CCK-8","5 µM, with: TNF-α SMAC mimetic zVAD",78.5% and 97.5% and 93.5% and 86.5%
L929,CCK-8,100 µM,48.7% and 37.7% and 35.9% and 48.3% and 37.6%
L929 RIPK3 knockout,,"100 µM, with: zVAD",43.6% and 44.6% and 34.6% and 45.5%
L929 RIPK3 knockout,,"12.5 µM, with: zVAD",107% and 94.7% and 108% and 95.6%
L929,CCK-8,3.125 µM,106% and 103% and 104% and 100%

# Sample 3 — observed: peptide-MHC binding; molecule type: peptide; tested at: concentration not given
# Target: HLA class I histocompatibility antigen, C alpha chain, allele C*04:01 (Homo sapiens, UniProt P10321)
Sequence,binding
RPREATIIY,inactive
YAYNSSLLY,inactive
MSPDNALIY,inactive
RPRPRTPEW,inactive
MERFSWHVA,inactive
RVRWRNYAL,inactive
ASMDNTSPM,inactive
TTYVYTLPV,inactive

# Sample 4 — observed: ligand displacement; tested at: 10 µM
# Target: Muscarinic acetylcholine receptor M1 (CHRM1, Homo sapiens, UniProt P11229)
# Chain of UniProt P11229 (whole entry, looked up): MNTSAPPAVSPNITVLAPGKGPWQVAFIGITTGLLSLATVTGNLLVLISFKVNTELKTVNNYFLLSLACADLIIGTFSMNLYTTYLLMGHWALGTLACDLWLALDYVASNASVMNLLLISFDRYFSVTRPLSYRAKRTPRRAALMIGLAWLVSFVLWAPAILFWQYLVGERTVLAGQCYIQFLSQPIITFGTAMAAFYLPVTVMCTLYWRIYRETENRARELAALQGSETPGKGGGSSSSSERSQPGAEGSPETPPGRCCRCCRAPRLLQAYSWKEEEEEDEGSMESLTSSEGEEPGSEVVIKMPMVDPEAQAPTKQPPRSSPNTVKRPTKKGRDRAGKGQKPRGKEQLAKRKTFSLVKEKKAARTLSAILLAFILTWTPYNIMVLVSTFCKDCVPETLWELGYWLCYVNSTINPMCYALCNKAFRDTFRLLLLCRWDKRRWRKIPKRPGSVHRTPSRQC
Structure (SMILES),inhibition
CNC(=N)NCCC[C@H](NC(=O)[C@H](CC(C)C)NC(=O)NNC(=O)[C@H](Cc1ccccc1)NC(=O)[C@H](CO)NC(=O)[C@H](CC(N)=O)NC(=O)[C@@H](Cc1ccncc1)NC(=O)[C@H](N)Cc1ccc(O)cc1)C(=O)N[C@@H](Cc1ccccc1)C(N)=O,2.17%
CN(C)c1ncnc(-c2ccc3nc(Nc4cc(CN5CCN(C(=O)CC(F)(F)F)CC5)ccn4)[nH]c3c2)c1Cl,32.1%
CNC(=O)Nc1ccc2c(c1)CC[C@]21OC(=O)N(CC(=O)N(Cc2ccc(F)cc2)[C@@H](C)C(F)(F)F)C1=O,2.64%
CC[C@H](CC(=O)O)n1c(=O)c2ncccc2n(Cc2cn(C)c3cc(C)cc(C)c23)c1=O,8.69%
O=C(NCCCC1CCCCC1)c1ccc(CNC(=O)c2cnn(-c3ccccc3)c2C(F)(F)F)cc1,11.8%
Cc1ccc(-c2cnc([C@@]3(O)CC[C@H](C(=O)O)C(C)(C)C3)s2)cc1Nc1cccc(C(F)(F)F)n1,-6.43%

# Some of these lines once more (sample 3):
Sequence,binding
MSPDNALIY,inactive
RPRPRTPEW,inactive
MERFSWHVA,inactive
RVRWRNYAL,inactive
ASMDNTSPM,inactive
